Measurements pooled from the literature.
Compare with care: the assays were run in different laboratories. ± gives the spread as reported.
Urease: Urease (Canavalia ensiformis, UniProt P07374)
CYP2D6: Cytochrome P450 2D6 (CYP2D6, Homo sapiens, UniProt P10635)
HDAC1: Histone deacetylase 1 (HDAC1, Homo sapiens, UniProt Q13547)

SMILES | target | test | test system | setting | IC50 [µM]
N=C(N)NCCC[C@H](NC(=O)[C@@H](N)CCCCN)C(=O)N1CCC[C@H]1C(=O)N1CCC[C@H]1C(=O)NCC(=O)N[C@@H](Cc1ccccc1)C(=O)N[C@@H](CO)C(=O)N1CCC[C@H]1C(=O)N[C@@H](Cc1ccccc1)C(=O)N[C@@H](CCCCN)C(=O)O | BDKRB2 (Homo sapiens, UniProt P30411) | – | – | – | 0.0033
CN(C)c1ccc(NC(=O)CCCCCNC(=O)CS)cc1 | HDAC10 (Homo sapiens, UniProt Q969S8) | enzyme activity, inhibitor | – | – | 17.7
NC(=O)c1cccc(CCN(CC[C@H](N)C(=O)O)C[C@H]2O[C@@H](n3cnc4c(N)ncnc43)[C@H](O)[C@@H]2O)c1 | RNA demethylase ALKBH5 (Homo sapiens, UniProt Q6P6C2) | RNA demethylase activity, inhibitor | – | – | > 50
O=C(NO)NCCc1cccs1 | Urease | enzyme activity, inhibitor, absorbance | – | – | 12.2
CCc1cccc2c(C(=O)NC3CCN(C(=O)C(C)C)CC3)c[nH]c12 | Procathepsin L (CTSL, Homo sapiens, UniProt P07711) | enzyme activity, inhibitor, FRET | – | – | > 100
CC(=O)CCC1C(=O)NC(C(C)C)C(=O)NC(Cc2cc(O)cc(F)c2)C(=O)N2CCCC(N2)C(=O)OC(C(C)=CC=CC(=O)N2CCCCO2)CC=CC=CC(O)C(C)C1O (centres unmarked) | ABCB11 (Homo sapiens, UniProt O95342) | efflux transport, inhibitor | membrane vesicles | added: taurocholate 2 µM | 12.3
CC(C)[C@H](NC(=O)c1ccc(CNc2nc3c(c(=O)[nH]2)CCC3)cc1)C(=O)NC1CNC1 | MMP2 (Homo sapiens, UniProt P08253) | enzyme activity, inhibitor | – | – | > 5
C/C=C1/CN2CCc3c([nH]c4ccccc34)[C@@H]2C[C@@H]1/C(=C\OC)C(=O)OC | HTR2C (Homo sapiens, UniProt P28335) | ligand displacement, radioligand | – | cell membranes | 1.48
CC[C@H](C)[C@H](NC(=O)[C@H](Cc1ccc(O)cc1)NC(=O)[C@@H](NC(=O)[C@H](CCCNC(=N)N)NC(=O)[C@@H](N)CC(=O)O)C(C)C)C(=O)N[C@@H](Cc1cnc[nH]1)C(=O)N1CCC[C@H]1C(=O)N[C@@H](Cc1ccccc1)C(=O)O | ACE (Homo sapiens, UniProt P12821) | enzyme activity, inhibitor, HPLC | – | – | 82
CCCCCc1cc(O)c2c(c1)OC(C)(C)C1CCC(C(=O)OC3OC(C(=O)O)C(O)C(O)C3O)=CC21 (centres unmarked) | CYP2D6 | inhibitor | – | 30 min preincubation, added: NADPH | 6.4 ± 2.5
CC[C@H](C)[C@H](N)C(=O)N[C@@H](Cc1c[nH]cn1)C(=O)N[C@@H](CC(C)C)C(=O)N[C@@H](C)C(=O)N[C@@H](C)C(=O)N[C@@H](Cc1ccccc1)C(=O)N[C@@H](CC(=O)O)C(=O)N[C@@H](CS)C(=O)N[C@@H](Cc1ccccc1)C(=O)O | APOBEC3G (Homo sapiens, UniProt Q9HC16) | – | – | – | > 100
CC[C@H](C)[C@H](NC(=O)[C@H](CC(C)C)NC(=O)[C@@H](NC(=O)[C@@H](N)CCCCN)[C@@H](C)CC)C(=O)N[C@@H](Cc1ccc(O)cc1)C(=O)NCC(=O)O | ACE (Oryctolagus cuniculus, UniProt P12822) | enzyme activity, inhibitor | – | – | 53.3
CC[C@H](C)[C@H](NC(=O)[C@H](CCCNC(=N)N)NC(=O)[C@H](CCSC)NC(=O)[C@H](C)N)C(=O)N[C@@H](CO)C(=O)N[C@@H](CCCNC(=N)N)C(=O)N[C@H](C(=O)N[C@H](C(=O)N[C@@H](CCCNC(=N)N)C(=O)N[C@H](CC(=O)O)C(=O)N[C@@H](Cc1ccccc1)C(=O)N[C@@H](CC(C)C)C(=O)N[C@@H](Cc1ccccc1)C(=O)N[C@@H](CCC(N)=O)C(=O)N[C@@H](CCCNC(=N)N)C(=O)N[C@@H](CCCCN)C(=O)N[C@@H](CCCCN)C(=O)O)[C@@H](C)CC)[C@@H](C)CC | histidine kinase ComD (Streptococcus pneumoniae serotype 2, UniProt A0A0H2ZM50) | – | Streptococcus pneumoniae | – | > 1
NC1CCc2cc(O)c(O)cc2C1 (centres unmarked) | Carbamate kinase (Giardia intestinalis, UniProt A8BB85) | enzyme activity, inhibitor, coupled luminescence | – | – | 13
CC(=O)N[C@H]1[C@@H](OC[C@H](NC(=O)CNC(=O)[C@@H]2CCCN2C(=O)[C@H](C)NC(=O)[C@@H]2CCCN2C(=O)[C@@H](N)CCCNC(=N)N)C(=O)N[C@H](C(=O)N[C@@H](C)C(=O)N2CCC[C@H]2C(=O)N2CCC[C@H]2C(=O)N[C@@H](C)C(=O)N[C@@H](Cc2c[nH]cn2)C(=O)NCC(=O)O)[C@@H](C)O)O[C@H](CO)[C@H](O)[C@@H]1O | mouse monoclonal antibody | antibody binding, inhibitor, competition ELISA | – | 1 h | 2.89
CC(C)[C@H](N)C(=O)N[C@H]1CSCC(=NOCC(=O)NCP(=O)(Oc2ccccc2)Oc2ccccc2)CSC[C@@H](C(=O)NCC(N)=O)NC(=O)[C@@H]2CCCN2C(=O)[C@H](C(C)C)NC(=O)[C@H](C)NC(=O)[C@H](CCCNC(=N)N)NC(=O)[C@H](Cc2ccc(O)cc2)NC(=O)[C@H](CCCNC(=N)N)NC(=O)[C@H](CCC(N)=O)NC1=O | Fluorophosphonate-binding serine hydrolase F (Staphylococcus aureus, UniProt Q2FUY3) | enzyme activity, inhibitor | – | 1 h preincubation, added: 4-methylumbelliferyl heptanoate | ~35
CN(C)CP(C)(=O)O | Urease | enzyme activity, inhibitor, absorbance | – | pH 7 | 14.4
CC[C@H](C)[C@H](NC(=O)[C@@H](N)C(C)C)C(=O)N[C@@H](Cc1ccc(O)cc1)C(=O)NCC(=O)N1CCC[C@H]1C(=O)N[C@@H](CO)C(=O)N[C@H](C(=O)N[C@@H](Cc1ccccc1)C(=O)O)C(C)C | ACE (Homo sapiens, UniProt P12821) | enzyme activity, inhibitor, HPLC | – | – | 131
CCCC[C@H](NC(=O)[C@H](CC(C)C)NC(=O)[C@H](Cc1c[nH]cn1)NC(=O)CNC(=O)[C@@H](NC(=O)[C@H](C)NC(=O)[C@H](Cc1c[nH]c2ccccc12)NC(=O)[C@H](CCC(N)=O)NC(=O)[C@H](CC(N)=O)NC(=O)CNC(=O)[C@H](Cc1ccc(O)cc1)NC(=O)[C@H](CCCNC(=N)N)NC(=O)[C@H](CCC(N)=O)NC(=O)[C@@H]1CCC(=O)N1)C(C)C)C(N)=O | NMBR (Homo sapiens, UniProt P28336) | NMBR activity, cell-based | – | – | 0.0054 to 0.042

SMILES | target | test | test system | setting | IC50 [µM]
CSCC[C@H](NC(=O)[C@H](Cc1ccccc1)NC(=O)[C@H](Cc1cnc[nH]1)NC(=O)CNC(=O)[C@@H](NC(=O)[C@H](C)NC(=O)[C@H](Cc1c[nH]c2ccccc12)NC(=O)[C@H](CC(C)C)NC(=O)[C@H](CC(N)=O)NC(=O)CN)[C@@H](C)O)C(N)=O | Gastrin-releasing peptide receptor (Mus musculus, UniProt P21729) | – | cells, mouse | – | 0.052 ± 0.002
CCC(=O)Nc1cc(Nc2cc(NC3CC3)n3ncc(C#N)c3n2)ccc1N(C)CCNC | CSNK2A2 (Homo sapiens, UniProt P19784) | target engagement in cells, BRET | – | – | 0.00251
O=C1c2ccccc2[Se](=O)N1c1ccccc1 (centres unmarked) | HDAC1 | enzyme activity, inhibitor, fluorescence | – | – | 2.26
CCC(CC)OC1C=C(C(=O)OC(C)OC(=O)C(N)C(C)C)CC(NC(=N)N)C1NC(C)=O (mixture of isomers) | SLC15A1 (Homo sapiens, UniProt P46059) | transporter uptake, inhibitor, radiometric | – | pH 6 | < 1000
CC(=O)N[C@H]1[C@H](OC[C@H](NC(=O)[C@H](C)NC(=O)[C@@H](N)Cc2ccccc2)C(=O)NCC(=O)N[C@@H](CC(N)=O)C(=O)N[C@@H](Cc2ccc(O)cc2)C(=O)N[C@@H](CO)C(=O)N[C@@H](C)C(=O)N[C@@H](CC(C)C)C(=O)O)O[C@H](CO)[C@@H](O)[C@@H]1O | Antigen peptide transporter 1/Antigen peptide transporter 2 (Homo sapiens, UniProt Q03518+Q03519) | peptide translocation, competitor | permeabilized LCL721 cells | added: iodinated peptide | 8
F[P-](F)(F)(F)(F)F.OCP(CO)CO.OCP(CO)CO.OCP(CO)CO.OCP(CO)CO.[Cu+] | PSMB6/PSMB5/PSMB7 (Homo sapiens, UniProt P28072+P28074+Q99436) | proteasome CT-L activity, inhibitor | LoVo | 24 h | 31
CNc1nc(SC)nc2ccccc12 | CYP2D6 | inhibitor | – | – | > 50
CC1(C)OC2OC(C(CCO)NCCCCCCCCCCNC(CCO)C3OC4OC(C)(C)OC4C3OCc3ccccc3)C(OCc3ccccc3)C2O1 (centres unmarked) | DNA ligase 1 (Homo sapiens, UniProt P18858) | enzyme activity, inhibitor, radiometric | – | – | 72
CN(C)S(=O)(=O)c1cc(O)c(O)c2c1CN(Cc1ccc(F)c(Cl)c1)C2=O | Gag-Pol polyprotein, integrase (gag-pol, Human immunodeficiency virus 1, UniProt P12497) | 3'-processing, inhibitor, gel-based | – | recombinant wild-type integrase | 8.6 ± 0.6
CC(=O)N[C@@H](CC(C)C)C(=O)N[C@@H](CCC(=O)O)C(=O)N[C@@H](CO)C(=O)N[C@@H](CC(=O)O)C(=O)CCl | Caspase-10 (CASP10, Homo sapiens, UniProt Q92851) | enzyme activity, inhibitor, fluorescence | – | – | 0.52
COc1ccc(CC[C@H]2OC(=O)[C@@H]3CCCCN3C(=O)C(=O)C(C)(C)COC(=O)/C=C/CCN(C)C(=O)[C@H](CC(C)C)N(C)C(=O)[C@@H]3CCCN3C(=O)[C@H](Cc3ccccc3)N(C)C(=O)[C@H](c3ccccc3)NC(=O)CCC(=O)Nc3cccc2c3)cc1OC | SLC29A1 (Homo sapiens, UniProt Q99808) | transporter uptake, inhibitor, radiometric | – | – | 0.0032
CC(=O)N1CCC[C@H]1C(=O)N[C@@H](CC(C)C)C(=O)N[C@H]1C[C@H](CCCCCCCCc2ccccc2)C(=O)NCCCC[C@@H](C(N)=O)NC(=O)[C@H]([C@@H](C)OP(=O)(O)O)NC(=O)[C@H](CO)NC1=O | Serine/threonine-protein kinase PLK2, polo-box domain (PLK2, Homo sapiens, UniProt Q9NYY3) | polo-box domain binding, inhibitor, fluorescence polarization | – | isolated polo-box domain | 0.6 ± 0.02
Cc1cc(S(=O)(=O)Nc2ncccn2)c(F)cc1N(C)C1CCN([C@H](C)c2ccccc2)CC1 | SCN8A (Homo sapiens, UniProt Q9UQD0) | sodium current, inhibitor, automated patch clamp | – | inactivated state, Vh -45 mV | 0.078
COC(=O)C=CCCC(NC(=O)c1ccncc1C(=O)O)C(=O)NC(C(=O)N1CC(=O)CC1C(=O)NC(C(=O)NC(C(N)=O)C1CCCCC1)C1CCCCC1)C(C)(C)C (centres unmarked) | Protein-glutamine gamma-glutamyltransferase 6 (Homo sapiens, UniProt O95932) | enzyme activity, inhibitor | – | – | 0.017
O=C(CCCCCCC(=O)Nc1ccc(N=Nc2ccccc2)cc1)NO | HDAC1 | enzyme activity, inhibitor | – | trans isomer | 0.081 ± 0.012
Nc1nc2c(c(=O)[nH]1)[n+](Cc1ccc(OS(=O)(=O)F)cc1)cn2[C@@H]1O[C@H](COP(=O)(O)O)[C@@H](O)[C@H]1O | NT5C3B (Homo sapiens, UniProt Q969T7) | enzyme activity, inhibitor, absorbance | – | pH 7.5 | 16.9
Cc1ccc2c(n1)c(-c1cccc(S(C)(=O)=O)c1)c(C)n2C/C(F)=C/CN | LOXL1 (Homo sapiens, UniProt Q08397) | enzyme activity, inhibitor, fluorescence | – | with preincubation | 1.71
N=C(N)NCCC[C@@H]1NC(=O)[C@H](CCCCNC(=O)CC[C@H](NC(=O)CCOCCOCCOCCOCCNC(=O)CN2CCN(CC(=O)O)CCN(CC(=O)O)CCN(CC(=O)O)CC2)C(=O)NCCCC[C@@H]2NC(=O)[C@@H](Cc3ccccc3)NC(=O)[C@H](CC(=O)O)NC(=O)CNC(=O)[C@H](CCCNC(=N)N)NC2=O)NC(=O)[C@@H](Cc2ccccc2)NC(=O)[C@H](CC(=O)O)NC(=O)CNC1=O | Integrin alpha-V/beta-3 (Homo sapiens, UniProt P05106+P06756) | ligand displacement, radioligand | – | – | 0.005
CNC(=[Se])NC | Urea transporter 2 (Rattus norvegicus, UniProt Q62668) | urea transport, inhibitor | MDCK expressing rat UT-A1 | 20 min | > 25000

Repeated from above:
SMILES | target | test | test system | setting | IC50 [µM]
NC1CCc2cc(O)c(O)cc2C1 (centres unmarked) | Carbamate kinase (Giardia intestinalis, UniProt A8BB85) | enzyme activity, inhibitor, coupled luminescence | – | – | 13
CC(=O)CCC1C(=O)NC(C(C)C)C(=O)NC(Cc2cc(O)cc(F)c2)C(=O)N2CCCC(N2)C(=O)OC(C(C)=CC=CC(=O)N2CCCCO2)CC=CC=CC(O)C(C)C1O (centres unmarked) | ABCB11 (Homo sapiens, UniProt O95342) | efflux transport, inhibitor | membrane vesicles | added: taurocholate 2 µM | 12.3
Cc1cc(S(=O)(=O)Nc2ncccn2)c(F)cc1N(C)C1CCN([C@H](C)c2ccccc2)CC1 | SCN8A (Homo sapiens, UniProt Q9UQD0) | sodium current, inhibitor, automated patch clamp | – | inactivated state, Vh -45 mV | 0.078
